Results pooled from the literature.
Compare with care: the assays were run in different laboratories. Several values in a cell are separate wells, animals, samples, runs or records. ± marks the error that the study gave.
LGB: Beta-lactoglobulin (LGB, Bos taurus, UniProt P02754)
Chain of UniProt P02754 (whole entry, looked up): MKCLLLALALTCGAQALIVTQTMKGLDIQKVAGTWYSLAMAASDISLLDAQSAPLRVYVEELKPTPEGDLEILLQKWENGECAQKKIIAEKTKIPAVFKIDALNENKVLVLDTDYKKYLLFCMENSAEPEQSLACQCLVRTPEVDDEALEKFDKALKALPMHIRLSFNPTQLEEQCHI
CYP1B1: Cytochrome P450 1B1 (CYP1B1, Homo sapiens, UniProt Q16678)
Chain of UniProt Q16678 (whole entry, looked up): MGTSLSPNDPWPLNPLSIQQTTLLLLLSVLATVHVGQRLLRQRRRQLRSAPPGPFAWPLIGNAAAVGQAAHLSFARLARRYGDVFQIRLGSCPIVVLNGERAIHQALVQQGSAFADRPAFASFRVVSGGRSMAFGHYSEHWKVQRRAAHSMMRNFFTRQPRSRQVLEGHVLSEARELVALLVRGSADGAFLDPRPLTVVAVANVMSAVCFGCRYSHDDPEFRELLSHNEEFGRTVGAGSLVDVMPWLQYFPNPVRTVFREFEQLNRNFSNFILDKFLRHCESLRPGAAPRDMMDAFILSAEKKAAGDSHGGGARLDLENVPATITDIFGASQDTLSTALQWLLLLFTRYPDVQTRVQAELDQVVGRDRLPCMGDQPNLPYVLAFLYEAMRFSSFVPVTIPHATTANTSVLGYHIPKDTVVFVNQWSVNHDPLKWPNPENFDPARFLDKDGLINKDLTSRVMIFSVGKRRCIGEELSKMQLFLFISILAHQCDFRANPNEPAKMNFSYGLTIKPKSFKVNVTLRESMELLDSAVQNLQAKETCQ
Chain of UniProt Q07820 (whole entry, looked up): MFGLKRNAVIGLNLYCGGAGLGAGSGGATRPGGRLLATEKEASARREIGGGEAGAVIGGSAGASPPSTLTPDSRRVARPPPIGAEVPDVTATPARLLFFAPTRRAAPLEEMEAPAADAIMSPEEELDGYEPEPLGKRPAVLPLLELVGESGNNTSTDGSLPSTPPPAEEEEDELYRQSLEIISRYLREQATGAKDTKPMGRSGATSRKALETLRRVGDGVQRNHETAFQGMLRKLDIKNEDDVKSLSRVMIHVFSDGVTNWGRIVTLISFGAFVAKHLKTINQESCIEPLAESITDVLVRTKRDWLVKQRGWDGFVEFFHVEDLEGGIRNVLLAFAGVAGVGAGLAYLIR
Chain of UniProt P21879 (whole entry, looked up): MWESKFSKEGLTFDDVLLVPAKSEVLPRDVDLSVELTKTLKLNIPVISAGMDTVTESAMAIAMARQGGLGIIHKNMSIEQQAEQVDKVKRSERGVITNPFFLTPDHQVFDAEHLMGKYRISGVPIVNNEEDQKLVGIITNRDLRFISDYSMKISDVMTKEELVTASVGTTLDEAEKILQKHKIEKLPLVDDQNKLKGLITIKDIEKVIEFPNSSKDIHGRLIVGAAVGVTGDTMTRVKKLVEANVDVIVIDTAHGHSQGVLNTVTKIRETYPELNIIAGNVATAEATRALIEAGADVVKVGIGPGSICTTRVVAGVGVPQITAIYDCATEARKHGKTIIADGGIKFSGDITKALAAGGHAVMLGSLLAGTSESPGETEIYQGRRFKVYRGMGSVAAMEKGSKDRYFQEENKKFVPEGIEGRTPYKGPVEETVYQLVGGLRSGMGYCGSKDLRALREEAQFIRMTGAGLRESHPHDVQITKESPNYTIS
Chain of UniProt P12235 (whole entry, looked up): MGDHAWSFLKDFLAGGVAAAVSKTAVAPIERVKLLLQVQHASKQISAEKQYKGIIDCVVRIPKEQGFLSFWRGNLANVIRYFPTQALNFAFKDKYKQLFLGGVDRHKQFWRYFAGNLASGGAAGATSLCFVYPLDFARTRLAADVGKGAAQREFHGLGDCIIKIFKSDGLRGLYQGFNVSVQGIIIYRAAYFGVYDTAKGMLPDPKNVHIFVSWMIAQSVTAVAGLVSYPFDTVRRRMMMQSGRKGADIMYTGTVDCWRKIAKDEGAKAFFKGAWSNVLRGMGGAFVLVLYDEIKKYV
Chain of UniProt Q84HF5 (whole entry, looked up): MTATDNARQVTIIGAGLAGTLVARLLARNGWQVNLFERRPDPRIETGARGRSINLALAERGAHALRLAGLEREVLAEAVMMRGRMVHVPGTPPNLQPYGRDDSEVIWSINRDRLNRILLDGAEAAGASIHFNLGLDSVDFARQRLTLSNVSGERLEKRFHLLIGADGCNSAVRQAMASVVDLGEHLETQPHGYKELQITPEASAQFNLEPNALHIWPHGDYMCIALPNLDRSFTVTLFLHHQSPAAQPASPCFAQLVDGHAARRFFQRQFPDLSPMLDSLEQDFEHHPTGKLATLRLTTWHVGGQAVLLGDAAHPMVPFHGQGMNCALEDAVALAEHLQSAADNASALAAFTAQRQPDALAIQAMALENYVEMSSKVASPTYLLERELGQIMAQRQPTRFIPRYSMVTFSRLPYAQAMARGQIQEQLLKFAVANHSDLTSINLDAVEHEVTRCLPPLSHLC
Chain of UniProt Q38087 (whole entry, unmodified, looked up): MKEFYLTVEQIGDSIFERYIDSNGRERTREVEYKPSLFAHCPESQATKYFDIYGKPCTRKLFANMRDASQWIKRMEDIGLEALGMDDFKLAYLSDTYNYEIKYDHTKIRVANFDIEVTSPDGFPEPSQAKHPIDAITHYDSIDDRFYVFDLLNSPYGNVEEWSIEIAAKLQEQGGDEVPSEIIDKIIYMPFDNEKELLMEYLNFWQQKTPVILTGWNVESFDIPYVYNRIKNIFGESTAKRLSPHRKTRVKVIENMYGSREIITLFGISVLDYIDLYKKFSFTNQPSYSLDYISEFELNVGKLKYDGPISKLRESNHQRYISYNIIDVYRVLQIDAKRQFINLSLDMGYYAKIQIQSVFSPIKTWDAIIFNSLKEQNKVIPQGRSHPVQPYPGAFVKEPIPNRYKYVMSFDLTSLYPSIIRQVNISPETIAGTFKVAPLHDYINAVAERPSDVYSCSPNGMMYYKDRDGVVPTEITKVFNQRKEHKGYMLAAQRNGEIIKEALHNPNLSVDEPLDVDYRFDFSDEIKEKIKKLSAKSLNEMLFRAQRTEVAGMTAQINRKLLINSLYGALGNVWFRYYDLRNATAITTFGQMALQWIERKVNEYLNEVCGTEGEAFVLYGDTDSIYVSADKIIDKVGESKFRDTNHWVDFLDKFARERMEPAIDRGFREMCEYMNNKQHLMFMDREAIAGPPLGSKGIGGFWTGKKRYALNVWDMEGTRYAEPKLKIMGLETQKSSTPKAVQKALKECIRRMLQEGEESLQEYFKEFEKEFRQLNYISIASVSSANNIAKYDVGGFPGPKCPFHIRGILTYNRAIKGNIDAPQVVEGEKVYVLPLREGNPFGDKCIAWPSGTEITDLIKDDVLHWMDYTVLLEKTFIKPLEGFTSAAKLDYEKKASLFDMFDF
Chain of UniProt P22307 (whole entry, looked up): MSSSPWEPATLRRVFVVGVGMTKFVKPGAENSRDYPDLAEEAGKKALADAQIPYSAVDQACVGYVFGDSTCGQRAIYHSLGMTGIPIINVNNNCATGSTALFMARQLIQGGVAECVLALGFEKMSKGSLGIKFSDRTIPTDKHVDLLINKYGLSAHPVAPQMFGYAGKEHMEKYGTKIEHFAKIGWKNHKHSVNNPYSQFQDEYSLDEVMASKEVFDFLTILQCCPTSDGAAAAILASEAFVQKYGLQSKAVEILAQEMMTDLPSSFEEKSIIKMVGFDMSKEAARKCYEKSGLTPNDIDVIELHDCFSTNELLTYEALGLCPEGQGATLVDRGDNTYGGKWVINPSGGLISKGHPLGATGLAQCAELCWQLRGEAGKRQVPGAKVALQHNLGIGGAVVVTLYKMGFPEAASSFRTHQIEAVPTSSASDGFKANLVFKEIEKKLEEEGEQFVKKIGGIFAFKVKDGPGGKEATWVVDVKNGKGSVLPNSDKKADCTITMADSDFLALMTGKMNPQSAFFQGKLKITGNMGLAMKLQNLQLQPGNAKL

For `CO[C@H](C/C=C\C=C\CC/C=C/C[C@H](C)/C=C/C(=C\C(=O)O)CC(=O)O)/C(C)=C\C=C(/C)C(=O)O`, the Kd was 19.3 µM (SLC25A4 (Homo sapiens, UniProt P12235); binding, SPR).
`phosphatidylinositol 4-phosphate` has a Kd of 47 µM (PFE0165w (Plasmodium falciparum, UniProt Q8I467); tryptophan fluorescence; Plasmodium falciparum, POPC vesicles 10% phosphoinositide; 25 °C).
For `CC1=C(/C=C/C(C)=C/C=C/C(C)=C/C=C/C=C(C)/C=C/C=C(C)/C=C/C2=C(C)C(=O)[C@@H](O)CC2(C)C)C(C)(C)C[C@H](O)C1=O`, the Kd was 1.92 ± 0.04 µM (LGB; binding).
`RPIIWIGQEISRVGDRENAYYAR` has a Kd of 0.045 ± 0.0061 µM (MCL1 (Homo sapiens, UniProt Q07820); binding, fluorescence anisotropy; peptide).
`CC[C@H](C)[C@H](NC(=O)[C@H](CCC(=O)O)NC(=O)[C@H](C)NC(=O)[C@H](CCC(N)=O)NC(=O)[C@H](CO)NC(=O)[C@H](CC(C)C)NC(=O)[C@@H](NC(=O)[C@H](CO)NC(=O)[C@H](CC(=O)O)NC(=O)CNC(=O)[C@@H](N)CCSC)[C@@H](C)CC)C(=O)N[C@@H](CC(=O)O)C(=O)N[C@@H](C)C(=O)N[C@@H](CC(C)C)C(=O)N[C@@H](CC(C)C)C(=O)N[C@@H](CC(N)=O)C(=O)O` — result for Kd: “not detected” (cheY, phosphono-modified (Escherichia coli, UniProt P0AE67, D57C/T87I)).
For `NC(=O)C1=CN([C@@H]2O[C@H](COP(=O)(O)OP(=O)(O)OC[C@H]3O[C@@H](n4cnc5c(N)ncnc54)[C@H](OP(=O)(O)O)[C@@H]3O)[C@@H](O)[C@H]2O)C=CC1`, the Kd was 152 ± 80 µM (Kynurenine 3-monooxygenase (Pseudomonas fluorescens, UniProt Q84HF5); fluorescence polarization displacement; pH 7.0, with: 30 nM fluorescent probe).
`[Ni+2]` has a Kd of 1.84 µM (methionine aminopeptidase (Acinetobacter baumannii, UniProt V5VCW7); metal binding, activator, activity titration; ATCC 17978; divalent metal ion Kd, with: Met-AMC substrate).
`CC(C)C[C@@H]1NC(=O)[C@H](C(C)C)NC(=O)[C@H](C)NC(=O)[C@@H](N)CSSC[C@@H](C(=O)NCC(=O)NCC(=O)NCC(=O)NCC(=O)N[C@@H](CO)C(=O)N2CCC[C@H]2C(=O)N[C@@H](C)C(=O)N2CCC[C@H]2C(=O)N[C@@H](C)C(=O)N[C@@H](CCCCN)C(=O)O)NC(=O)[C@H](CCC(N)=O)NC(=O)[C@H](CCC(=O)O)NC(=O)[C@H](CCC(=O)O)NC(=O)[C@H](CCCCN)NC(=O)[C@@H]2CCCN2C(=O)[C@H](CC(C)C)NC(=O)CNC(=O)[C@H](CO)NC1=O` has a Kd of 0.0172 µM (sapA (Haemophilus influenzae, UniProt Q4QL73); binding, SPR; 25 °C, with: immobilised oxidised defensin loop peptide).
With `Nc1ncnc2c1ncn2[C@@H]1O[C@H](COP(=O)(O)OP(=O)(O)OP(=O)(O)O)[C@@H](O)[C@H]1O` the Kd was 18 µM (EGFR (Homo sapiens, UniProt P00533)).
With `OCc1ccc(-c2nn(Cc3ccccc3)c3ccccc23)o1` the Kd was 1.1 ± 0.3 µM (soluble guanylate cyclase beta subunit, N-terminal fragment (Manduca sexta, UniProt O77106); binding).
With `Fluorescein-12-ATP` the Kd was 3.6 ± 0.5 µM (Maintenance of carboxysome distribution protein A (mcdA, Gloeothece citriformis, UniProt B7KMS4, D38A/K151A); fluorescence polarization; pH 7.5, 25 °C, D38A mutant).
For `[N-]=[N+]=Nc1ccc[n+]([C@@H]2O[C@H](COP(=O)([O-])OP(=O)(O)OC[C@H]3O[C@@H](n4cnc5c(N)ncnc54)[C@H](O)[C@@H]3O)[C@@H](O)[C@H]2O)c1`, the Kd was 300 µM (glucose dehydrogenase (Bacillus megaterium); tryptophan fluorescence quenching).
For `CC(=O)N[C@@H](CC(C)C)C(=O)N[C@@H](CCCCN)C(=O)N[C@@H](CCCCN)C(=O)N[C@@H](CC(C)C)C(=O)N[C@@H](CC(C)C)C(=O)N[C@@H](CCCCN)C(=O)N[C@@H](CC(C)C)C(=O)N[C@@H](CC(C)C)C(=O)N[C@@H](CCCCN)C(=O)N[C@@H](CCCCN)C(=O)N[C@@H](CC(C)C)C(=O)N[C@@H](Cc1c[nH]c2ccccc12)C(=O)N[C@@H](CCCCN)C(=O)N[C@@H](CC(C)C)C(=O)N[C@@H](C)C(=O)NCC(N)=O`, the Kd was 0.0023 ± 2e-05 µM (HCV IRES domain IV hairpin; competitive fluorescence anisotropy; pH 7.4, 20 °C, with: rhodamine-Rev peptide).
For `NC(=O)c1ccc[n+]([C@@H]2O[C@H](COP(=O)([O-])OP(=O)(O)OC[C@H]3O[C@@H](n4cnc5c(N)ncnc54)[C@H](OP(=O)(O)O)[C@@H]3O)[C@@H](O)[C@H]2O)c1`, the Kd was 4 ± 1 µM (L-ornithine N(5)-monooxygenase (Neosartorya fumigata, UniProt E9QYP0); fluorescence polarization displacement; pH 7.0, with: 30 nM fluorescent probe).
For `CCCCCCC(CCCCCCCCCCC(=O)O)N(C)c1ccc([N+](=O)[O-])c2nonc12` (stereo not shown), the Kd was 0.22 µM (Sterol carrier protein 2 (Homo sapiens, UniProt P22307); binding, fluorescence).
`Nc1nc2c(ncn2[C@H]2C[C@H](O)[C@@H](COP(=O)(O)OP(=O)(O)OP(=O)(O)O)O2)c(=O)[nH]1` gave a Kd of 1200 ± 400 µM (DNA polymerase IV, with DNA (dbh, Saccharolobus solfataricus, UniProt Q97W02); dNTP incorporation, substrate, single-turnover kinetics; 37 °C, insertion opposite lesion, with: DNA with dG-C8-N-ABA lesion, Dpo4 120 nM).
The Kd of `CN(C)c1ccc(C(=C2C=CC(=[N+](C)C)C=C2)c2ccccc2)cc1` is reported as 1.23 ± 0.14 µM (HTH-type transcriptional regulator QacR (qacR, Staphylococcus aureus, UniProt P0A0N4); binding, tryptophan fluorescence quenching; pH 7.5).
For `CC1=C(/C=C/C(C)=C/C=C/C(C)=C/CO)C(C)(C)CCC1`, the Kd was 0.48 ± 0.05 µM (Xenopus IRBP W450F; binding, retinol fluorescence enhancement).
For `O=C(O)COc1ccccc1`, the Kd was about 500 µM (PIN8 (Arabidopsis thaliana, UniProt Q9LFP6); cell-free assay).
For `[Cl][Mn][Cl]`, the Kd was 40 µM (Genome polyprotein, NS3 helicase domain (Hepatitis C virus genotype 1b, UniProt Q9WMX2); binding, FRET; pH 6.25, with: 2 µM mantADP-BeF3).
For `C#Cc1cc2ccccc2c2ccccc12`, the Kd was < 2.5 µM and 1.6 µM (CYP1B1; binding, fluorescence; pH 7.4).
The Kd of `CC(C)[C@H](NC(=O)[C@H](CC(N)=O)NC(=O)CNC(=O)[C@H](CC(=O)O)NC(=O)[C@H](CCCNC(=N)N)NC(=O)[C@H](CC(N)=O)NC(=O)[C@@H](N)CC(=O)O)C(=O)N[C@@H](Cc1ccc(O)cc1)C(=O)N[C@@H](Cc1ccc(O)cc1)C(=O)N[C@@H](Cc1ccccc1)C(=O)O` is reported as 0.2 µM (Serine endoprotease DegS (degS, Escherichia coli, UniProt P0AEE3)).
`[C-]#[O+]` has a Kd of under 25 µM (ferrous H-NOX (Nostoc sp.); stopped-flow absorbance; 24 °C).
`CC(C)=CCC[C@@H](C)[C@H]1CC[C@@]2(C)C3=C(CC[C@]12C)[C@@]1(C)CC[C@H](O)C[C@@H]1CC3` gave a Kd of 12 ± 2 µM (Sterol 14-alpha demethylase (Acanthamoeba castellanii, UniProt L8GJB3); sterol binding, spectral titration; 40% w/v HPCD).
`Nc1ncnc2c1ncn2[C@@H]1O[C@H](COP(=O)(O)OP(=O)(O)OP(=O)(O)OP(=O)(O)OP(=O)(O)OP(=O)(O)OC[C@H]2O[C@@H](n3cnc4c(N)ncnc43)[C@H](O)[C@@H]2O)[C@@H](O)[C@H]1O` gave a Kd of 0.8 ± 0.2 µM (guaB (Bacillus subtilis, UniProt P21879)).
`COc1cc2c(cc1OC)C13CCN4CC5=CCOC(CC(=O)O)C(C5CC41)C3N2` (stereo not shown) has a Kd of 0.0163 µM (Soluble acetylcholine receptor (Aplysia californica, UniProt Q8WSF8); binding, scintillation proximity; with: 20 nM [3H]epibatidine).
The Kd of `CC1=C[C@H](O)CC(C)(C)[C@H]1/C=C/C(C)=C/C=C/C(C)=C/C=C/C=C(C)/C=C/C=C(C)/C=C/C1=C(C)C[C@@H](O)CC1(C)C` is reported as 1.73 ± 0.02 µM (LGB; binding).
The Kd of `[Co+2]` is reported as 0.45 µM (methionine aminopeptidase (Acinetobacter baumannii, UniProt A0A7U4DGZ4); metal binding, activator, activity titration; ATCC 17978; divalent metal ion Kd, with: Met-AMC substrate).
With `C=Cc1ccc2ccc3cccc4ccc1c2c34` the Kd was 2 µM and < 2.5 µM (CYP1B1; binding, fluorescence; pH 7.4).
For `Nc1nc2c(ncn2[C@H]2C[C@H](O)[C@@H](COP(=O)(O)OP(=O)(O)OP(=O)(O)O)O2)c(=O)[nH]1`, the Kd was 110 ± 27 µM (DNA-directed DNA polymerase, with primer/template (43, Escherichia phage RB69, UniProt Q38087, D222A/D327A); binding, fluorescence titration; opposite tC°, dideoxy primer).
With `CC(=O)N[C@@H](CC(C)C)C(=O)N[C@@H](CCCCN)C(=O)N[C@@H](CCCCN)C(=O)N[C@@H](Cc1c[nH]c2ccccc12)C(=O)N[C@@H](CC(C)C)C(=O)N[C@@H](CCCCN)C(=O)N[C@@H](CC(C)C)C(=O)N[C@@H](CC(C)C)C(=O)N[C@@H](CCCCN)C(=O)N[C@@H](CCCCN)C(=O)N[C@@H](CC(C)C)C(=O)N[C@@H](CC(C)C)C(=O)N[C@@H](CCCCN)C(=O)N[C@@H](CC(C)C)C(=O)N[C@@H](C)C(=O)NCC(N)=O` the Kd was 0.0033 ± 0.0003 µM (HCV IRES domain IV hairpin; competitive fluorescence anisotropy; pH 7.4, 20 °C, with: rhodamine-Rev peptide).

Repeated from above:
`CC[C@H](C)[C@H](NC(=O)[C@H](CCC(=O)O)NC(=O)[C@H](C)NC(=O)[C@H](CCC(N)=O)NC(=O)[C@H](CO)NC(=O)[C@H](CC(C)C)NC(=O)[C@@H](NC(=O)[C@H](CO)NC(=O)[C@H](CC(=O)O)NC(=O)CNC(=O)[C@@H](N)CCSC)[C@@H](C)CC)C(=O)N[C@@H](CC(=O)O)C(=O)N[C@@H](C)C(=O)N[C@@H](CC(C)C)C(=O)N[C@@H](CC(C)C)C(=O)N[C@@H](CC(N)=O)C(=O)O` — result for Kd: “not detected” (cheY, phosphono-modified (Escherichia coli, UniProt P0AE67, D57C/T87I)).
For `[Cl][Mn][Cl]`, the Kd was 40 µM (Genome polyprotein, NS3 helicase domain (Hepatitis C virus genotype 1b, UniProt Q9WMX2); binding, FRET; pH 6.25, with: 2 µM mantADP-BeF3).
For `CO[C@H](C/C=C\C=C\CC/C=C/C[C@H](C)/C=C/C(=C\C(=O)O)CC(=O)O)/C(C)=C\C=C(/C)C(=O)O`, the Kd was 19.3 µM (SLC25A4 (Homo sapiens, UniProt P12235); binding, SPR).
